Measured values gathered from unrelated publications.
A part holds a random share of what one study measured. Positions count from the first letter of the parent shown.

Block 1 — target: UBE2N UBC core domain (UniProt P61088); technique: yeast two-hybrid; matrix: yeast; notes: mostly zero background; reference: not given; direction: higher = stronger interaction
Chain of UniProt P61088 (whole entry, looked up): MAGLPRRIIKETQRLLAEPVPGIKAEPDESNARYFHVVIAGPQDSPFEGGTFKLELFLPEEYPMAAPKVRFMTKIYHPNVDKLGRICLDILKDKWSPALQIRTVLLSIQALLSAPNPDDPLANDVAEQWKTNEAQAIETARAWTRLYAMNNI
B1: RNF133 RING domain (UniProt Q8WVZ7); chain DEEINPNGDSCVICFERYKPNDIVRILTCKHFFHKNCIDPWILPHGTCPICKCDILKVLGIQ
B2: MDM4 RING domain (UniProt O15151); chain MEDCQNLLKPCSLCEKRPRDGNIIHGRTGHLVTCFHCARRLKKAGASCPICKKEIQLVIKVF
B3: MAP3K1 RING domain (UniProt Q13233); chain NSIKDEEEQMCPICLLGMLDEESLTVCEDGCRNKLHHHCMSIWAEECRRNREPLICPLCRSKWRSHDFYS
B4: UBOX5 RING domain (UniProt O94941); chain EQPGSILGPECASCKRVFSPYFKKEPVYQLPCGHLLCRPCLGEKQRSLPMTCTACQRPVASQDVLR
B5: RBCK1 RING domain (UniProt Q9BYM8); chain SLVLNTEPAECPVCYSVLAPGEAVVLRECLHTFCRECLQGTIRNSQEAEVSCPFIDNTYSCSGKLLEREIK
Sequence | lacZ reporter activity
AVPSGLEENLCKICMDSPIDCVLLECGHMVTCTKCGKRMNECPICRQYVIRAVHVF (RFFL RING domain (UniProt Q8WZ73)) | 0
KETIKKTTKPCPRCHVPVEKNGGCMHMKCPQPQCRLEWCWNCGCEWNRVCMG (PRKN RING domain (UniProt O60260)) | 0
FDGDVDPDLKCALCHKVLEDPLTTPCGHVFCAGCVLPWVVQEGSCPARCRGRLSAKELN (PDZRN3 RING domain (UniProt Q9UPQ7)) | 0
PEDRESLKSACVVCLSSFKSCVFLECGHVCSCTECYRALPEPKKCPICRQAITRVIPLY (MUL1 RING domain (UniProt Q969V5)) | 14200
B1 (RNF133 RING domain) | 2500
B2 (MDM4 RING domain) | 0
B3 (MAP3K1 RING domain) | 7100
GSDDEEIPFKCFICRQSFQNPVVTKCRHYFCESCALQHFRTTPRCYVCDQQTNGVFNPA (RNF113A RING domain (UniProt O15541)) | 0
B4 (UBOX5 RING domain) | 0
KLRKLKEAMLCMVCCEEEINSTFCPCGHTVCCESCAAQLQSCPVCRSRVEHVQHVY (MYLIP RING domain (UniProt Q8WY64)) | 0
B5 (RBCK1 RING domain) | 0

Block 2 — target: CREB3L3, bZIP domain (human); technique: DHFR protein complementation; matrix: yeast; reference: wild-type JUN-FOS pair; direction: higher = stronger binding
Notes: single substitutions, most at no-binding floor
Starting sequence: JUN, bZIP domain (human); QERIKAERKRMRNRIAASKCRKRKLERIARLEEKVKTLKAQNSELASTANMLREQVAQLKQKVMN; partner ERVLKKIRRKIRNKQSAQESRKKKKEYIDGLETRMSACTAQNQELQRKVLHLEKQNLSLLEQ
Change | binding fitness [natural log]
I28L | -1.41
S43P | -1.53
M51K | -1.5
L38N | -1.51
Q41S | -1.54
A40W | -1.46
L38C | -1.5
N42T | -1.5
A40P | -1.51
R30Y | -1.46
K36G | -1.37
T37Y | -1.4
L38W | -1.5
R30M | -1.29
E54V | -1.52
V35C | -1.34
A40N | -1.51
Q55S | -1.55
L52S | -1.51
Q41A | -1.31
T37V | -1.2
L52Q | -1.53
E33D | -1.42

Block 3 — target: CCNB3, cyclin fold, Cln2 fusion (human); technique: yeast growth competition, sequencing; matrix: yeast; notes: weak parent motif; reference: not given; direction: higher = stronger binding
Starting sequence: SAMHD1 docking peptide (human); ASKSRVQLFKDDP
Change | normalised enrichment score
ASKSRVQLFKPDP [D11P] | 0.113
ASKSRQQLFKDDP [V6Q] | -1.01
ASKSRVQLFKDLP [D12L] | -0.0112
ASKSRVQLFEDDP [K10E] | 0.0994
ASKSRVKLFKDDP [Q7K] | 0.123
ASKSRVQLKKDDP [F9K] | -0.157
ASKSRVQLFKWDP [D11W] | -0.408
ASKSRVQLTKDDP [F9T] | -0.181
ASKSRVQLFKDNP [D12N] | 0.112
ASLSRVQLFKDDP [K3L] | 0.0976
ASKSRVQLFKHDP [D11H] | -0.0453
ASKSRVQLFKDGP [D12G] | 0.0308
ASKSRVQLFRDDP [K10R] | -0.00327
ASKSRLQLFKDDP [V6L] | -0.173
AQKSRVQLFKDDP [S2Q] | -0.215
ASKSRVQPFKDDP [L8P] | -0.169
ASKDRVQLFKDDP [S4D] | -0.0391
ASKSVVQLFKDDP [R5V] | -0.13
ASKSRVQIFKDDP [L8I] | -0.103
ASKSIVQLFKDDP [R5I] | 0.111
ASKSRVQLFIDDP [K10I] | -0.0899
ASKSRVQLFKDRP [D12R] | -0.0779
ASKSRVQLFKCDP [D11C] | 0.392
ASKSRVQLFKDVP [D12V] | 0.389
ASKSRVQAFKDDP [L8A] | -0.354

Block 4 — technique: protein-binding microarray; form: hairpin DNA; matrix: in vitro; concentration: not given; reference: not given; direction: higher = stronger binding
Target: Hepatocyte nuclear factor 3-beta, forkhead domain (FOXA2, Homo sapiens, UniProt Q9Y261, residues 142-269)
Notes: whole hairpin DNA, median over replicate spots
Construct (chain): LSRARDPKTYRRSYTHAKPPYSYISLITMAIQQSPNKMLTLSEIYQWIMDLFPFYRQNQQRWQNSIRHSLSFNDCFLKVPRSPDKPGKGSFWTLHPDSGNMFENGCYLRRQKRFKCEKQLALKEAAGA
Strand | median fluorescence
GAGGCCATGCAAACCGCGCCTCCTGGCGCGGTTTGCATGGCCTCACACTC (5mC at 15 29) | 3530 a.u.
GAGGCCATCCAAACAACGCCTCCTGGCGTTGTTTGGATGGCCTCACACTC | 3220 a.u.
GAGGCCATGTAAACATCGCCTCCTGGCGATGTTTACATGGCCTCACACTC | 4160 a.u.
GAGGCCATGTAAACAATGCCTCCTGGCATTGTTTACATGGCCTCACACTC | 5140 a.u.
GAGGCCATGTAAAAAACGCCTCCTGGCGTTTTTTACATGGCCTCACACTC | 2900 a.u.
GAGGCCATGCAACGAACGCCTCCTGGCGTTCGTTGCATGGCCTCACACTC (5mC at 31) | 3450 a.u.
GAGGCCATGTAAACCGCGCCTCCTGGCGCGGTTTACATGGCCTCACACTC | 3290 a.u.
GAGGCCATGTAACCACCGCCTCCTGGCGGTGGTTACATGGCCTCACACTC | 3230 a.u.
GAGGCCATGTAGACAACGCCTCCTGGCGTTGTCTACATGGCCTCACACTC | 3080 a.u.
GAGGCCATCTAAACAACGCCTCCTGGCGTTGTTTAGATGGCCTCACACTC (5mC at 9) | 2990 a.u.
GAGGCCATGTAACCAACGCCTCCTGGCGTTGGTTACATGGCCTCACACTC (5mC at 14) | 3110 a.u.
GAGGCCATGCACGCAACGCCTCCTGGCGTTGCGTGCATGGCCTCACACTC (5mC at 12) | 3330 a.u.
GAGGCCCGGCAAACAACGCCTCCTGGCGTTGTTTGCCGGGCCTCACACTC (5mC at 7 37) | 3760 a.u.
GAGGCCATCTAAACAACGCCTCCTGGCGTTGTTTAGATGGCCTCACACTC | 3150 a.u.
GAGGCCATGTGACCAACGCCTCCTGGCGTTGGTCACATGGCCTCACACTC | 3310 a.u.
GAGGCCATGTCGCCAACGCCTCCTGGCGTTGGCGACATGGCCTCACACTC (5mC at 33) | 3500 a.u.
GAGGCCACGTAAACAACGCCTCCTGGCGTTGTTTACGTGGCCTCACACTC (5mC at 8) | 3820 a.u.
GAGGCCATGTCGACAACGCCTCCTGGCGTTGTCGACATGGCCTCACACTC (5mC at 11 33) | 3360 a.u.
GAGGCCGTGTAAACAACGCCTCCTGGCGTTGTTTACACGGCCTCACACTC (5mC at 38) | 4950 a.u.
